# Measured values gathered from unrelated publications.
# Protocols differ between the studies behind these lines. Several values in a cell are separate wells, animals, samples, runs or records. ± gives the spread as reported.
# Uncharacterized hydrolase SAUSA300_2518: Uncharacterized hydrolase SAUSA300_2518 (Staphylococcus aureus, UniProt Q2FDS6)
# UniProt Q2FDS6, sequence (whole entry, looked up): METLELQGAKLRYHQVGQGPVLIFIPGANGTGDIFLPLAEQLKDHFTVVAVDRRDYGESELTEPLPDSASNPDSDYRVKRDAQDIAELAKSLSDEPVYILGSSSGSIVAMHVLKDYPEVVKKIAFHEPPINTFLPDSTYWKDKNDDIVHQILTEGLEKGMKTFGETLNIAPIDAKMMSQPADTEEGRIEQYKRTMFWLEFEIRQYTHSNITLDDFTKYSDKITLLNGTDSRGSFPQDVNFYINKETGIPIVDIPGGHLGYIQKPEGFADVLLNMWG
# sdiA: Regulatory protein SdiA (sdiA, Escherichia coli, UniProt P07026)
# UniProt P07026, sequence (whole entry, looked up): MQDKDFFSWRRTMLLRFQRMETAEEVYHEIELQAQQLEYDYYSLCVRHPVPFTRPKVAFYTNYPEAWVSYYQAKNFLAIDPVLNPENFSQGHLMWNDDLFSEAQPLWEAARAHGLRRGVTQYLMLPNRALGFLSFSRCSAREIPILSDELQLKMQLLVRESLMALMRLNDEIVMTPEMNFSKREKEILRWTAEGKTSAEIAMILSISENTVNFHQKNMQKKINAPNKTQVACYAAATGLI
# KEAP1: Kelch-like ECH-associated protein 1 (KEAP1, Homo sapiens, UniProt Q14145)
# UniProt Q14145, sequence (whole entry, looked up): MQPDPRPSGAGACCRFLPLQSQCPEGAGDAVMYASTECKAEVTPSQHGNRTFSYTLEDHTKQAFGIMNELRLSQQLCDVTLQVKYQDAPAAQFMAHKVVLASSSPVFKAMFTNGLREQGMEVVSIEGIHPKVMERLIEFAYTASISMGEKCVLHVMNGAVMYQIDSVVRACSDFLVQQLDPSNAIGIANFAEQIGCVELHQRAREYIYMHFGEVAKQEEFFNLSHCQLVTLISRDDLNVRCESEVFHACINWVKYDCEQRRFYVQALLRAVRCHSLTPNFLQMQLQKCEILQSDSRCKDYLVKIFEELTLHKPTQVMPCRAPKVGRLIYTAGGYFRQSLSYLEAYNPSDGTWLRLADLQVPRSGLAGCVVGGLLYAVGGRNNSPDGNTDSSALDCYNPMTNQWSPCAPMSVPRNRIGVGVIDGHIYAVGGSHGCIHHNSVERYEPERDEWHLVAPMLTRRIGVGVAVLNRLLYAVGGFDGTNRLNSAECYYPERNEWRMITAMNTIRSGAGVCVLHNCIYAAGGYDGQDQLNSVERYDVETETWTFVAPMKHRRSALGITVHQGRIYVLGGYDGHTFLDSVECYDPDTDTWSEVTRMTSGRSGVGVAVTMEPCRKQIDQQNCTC
# lasR: Transcriptional activator protein LasR (lasR, Pseudomonas aeruginosa, UniProt P25084)
# UniProt P25084, sequence (whole entry, looked up): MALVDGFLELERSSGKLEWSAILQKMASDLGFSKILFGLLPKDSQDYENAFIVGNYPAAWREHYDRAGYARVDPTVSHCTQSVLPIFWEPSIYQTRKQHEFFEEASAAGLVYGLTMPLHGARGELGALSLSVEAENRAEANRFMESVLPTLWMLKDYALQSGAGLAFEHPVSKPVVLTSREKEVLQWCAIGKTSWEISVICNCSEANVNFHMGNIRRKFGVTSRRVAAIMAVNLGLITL
# Oprm1: Mu-type opioid receptor (Oprm1, Rattus norvegicus, UniProt P33535)
# UniProt Q99JW1, sequence (whole entry, looked up): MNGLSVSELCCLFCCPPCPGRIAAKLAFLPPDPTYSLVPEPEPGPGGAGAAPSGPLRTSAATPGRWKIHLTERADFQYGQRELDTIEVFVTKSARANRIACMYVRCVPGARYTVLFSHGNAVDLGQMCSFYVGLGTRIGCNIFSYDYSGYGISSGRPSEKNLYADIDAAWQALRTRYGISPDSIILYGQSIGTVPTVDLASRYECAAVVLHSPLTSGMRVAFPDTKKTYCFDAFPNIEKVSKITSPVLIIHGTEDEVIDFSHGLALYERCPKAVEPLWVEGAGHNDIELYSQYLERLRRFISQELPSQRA
# UniProt P33535, sequence (whole entry, looked up): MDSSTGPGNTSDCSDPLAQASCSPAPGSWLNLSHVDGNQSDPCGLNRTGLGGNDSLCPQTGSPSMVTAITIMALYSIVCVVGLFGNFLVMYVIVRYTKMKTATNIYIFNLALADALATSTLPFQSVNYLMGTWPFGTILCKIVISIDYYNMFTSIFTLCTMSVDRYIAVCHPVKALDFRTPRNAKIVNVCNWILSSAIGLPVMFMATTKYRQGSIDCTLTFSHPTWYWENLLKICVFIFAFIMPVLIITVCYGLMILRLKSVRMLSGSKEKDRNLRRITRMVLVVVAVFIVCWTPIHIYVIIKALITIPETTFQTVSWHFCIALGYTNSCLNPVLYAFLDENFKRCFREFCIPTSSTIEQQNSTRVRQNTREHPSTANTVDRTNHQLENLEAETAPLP
# UniProt Q9Y2J8, sequence (whole entry, looked up): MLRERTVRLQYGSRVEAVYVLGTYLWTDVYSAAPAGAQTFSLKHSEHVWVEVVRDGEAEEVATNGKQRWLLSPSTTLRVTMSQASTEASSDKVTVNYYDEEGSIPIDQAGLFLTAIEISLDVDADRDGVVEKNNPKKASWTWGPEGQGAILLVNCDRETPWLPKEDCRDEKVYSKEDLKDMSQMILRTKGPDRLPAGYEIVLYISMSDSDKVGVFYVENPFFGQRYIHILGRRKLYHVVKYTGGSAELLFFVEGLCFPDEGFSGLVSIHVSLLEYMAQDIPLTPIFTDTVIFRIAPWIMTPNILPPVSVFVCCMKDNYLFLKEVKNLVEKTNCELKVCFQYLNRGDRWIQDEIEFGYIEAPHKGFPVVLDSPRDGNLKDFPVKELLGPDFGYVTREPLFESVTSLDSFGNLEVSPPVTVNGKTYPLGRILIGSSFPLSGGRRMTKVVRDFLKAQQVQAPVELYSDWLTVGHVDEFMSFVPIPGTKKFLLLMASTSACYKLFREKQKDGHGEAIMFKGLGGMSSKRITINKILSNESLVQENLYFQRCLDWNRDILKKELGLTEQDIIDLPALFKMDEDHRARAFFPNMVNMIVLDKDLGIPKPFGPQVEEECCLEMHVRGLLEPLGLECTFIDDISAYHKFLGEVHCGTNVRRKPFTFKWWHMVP
# UniProt P27361, sequence (whole entry, looked up): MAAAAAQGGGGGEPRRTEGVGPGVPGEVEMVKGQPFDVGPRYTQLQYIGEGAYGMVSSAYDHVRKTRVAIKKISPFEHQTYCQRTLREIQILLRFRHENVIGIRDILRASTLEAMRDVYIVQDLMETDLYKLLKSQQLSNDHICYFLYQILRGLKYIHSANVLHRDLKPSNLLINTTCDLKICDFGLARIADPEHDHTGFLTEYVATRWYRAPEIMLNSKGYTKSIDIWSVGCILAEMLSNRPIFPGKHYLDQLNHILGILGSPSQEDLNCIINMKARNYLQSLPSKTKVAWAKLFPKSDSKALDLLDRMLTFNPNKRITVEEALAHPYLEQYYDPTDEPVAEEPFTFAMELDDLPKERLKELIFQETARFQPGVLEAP
# UniProt Q3UUQ7, sequence (whole entry, looked up): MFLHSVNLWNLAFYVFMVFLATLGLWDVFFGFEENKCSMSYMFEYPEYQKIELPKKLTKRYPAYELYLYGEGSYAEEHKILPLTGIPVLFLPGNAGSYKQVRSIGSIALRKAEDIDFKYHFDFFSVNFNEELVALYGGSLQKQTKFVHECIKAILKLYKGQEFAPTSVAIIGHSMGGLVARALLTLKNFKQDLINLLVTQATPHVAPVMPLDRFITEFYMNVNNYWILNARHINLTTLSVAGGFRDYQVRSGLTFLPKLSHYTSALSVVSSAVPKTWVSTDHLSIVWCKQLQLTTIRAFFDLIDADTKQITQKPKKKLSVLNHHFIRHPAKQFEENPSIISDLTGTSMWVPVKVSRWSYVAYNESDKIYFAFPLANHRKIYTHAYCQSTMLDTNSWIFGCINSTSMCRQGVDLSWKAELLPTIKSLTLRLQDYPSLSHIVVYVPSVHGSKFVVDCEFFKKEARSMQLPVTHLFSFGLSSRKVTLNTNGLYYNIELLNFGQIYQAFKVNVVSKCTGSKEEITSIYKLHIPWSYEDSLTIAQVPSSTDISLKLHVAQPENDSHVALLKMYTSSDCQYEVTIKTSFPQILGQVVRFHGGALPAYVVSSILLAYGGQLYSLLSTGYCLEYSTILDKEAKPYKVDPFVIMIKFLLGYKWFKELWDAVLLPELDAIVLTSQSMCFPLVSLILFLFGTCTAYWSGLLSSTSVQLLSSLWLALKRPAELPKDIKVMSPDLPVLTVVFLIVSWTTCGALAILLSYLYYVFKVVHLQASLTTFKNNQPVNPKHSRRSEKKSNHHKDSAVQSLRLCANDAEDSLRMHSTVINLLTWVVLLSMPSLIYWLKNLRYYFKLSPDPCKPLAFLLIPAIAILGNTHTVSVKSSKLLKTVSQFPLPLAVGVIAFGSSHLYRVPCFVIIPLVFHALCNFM
# UniProt P43403, sequence (whole entry, looked up): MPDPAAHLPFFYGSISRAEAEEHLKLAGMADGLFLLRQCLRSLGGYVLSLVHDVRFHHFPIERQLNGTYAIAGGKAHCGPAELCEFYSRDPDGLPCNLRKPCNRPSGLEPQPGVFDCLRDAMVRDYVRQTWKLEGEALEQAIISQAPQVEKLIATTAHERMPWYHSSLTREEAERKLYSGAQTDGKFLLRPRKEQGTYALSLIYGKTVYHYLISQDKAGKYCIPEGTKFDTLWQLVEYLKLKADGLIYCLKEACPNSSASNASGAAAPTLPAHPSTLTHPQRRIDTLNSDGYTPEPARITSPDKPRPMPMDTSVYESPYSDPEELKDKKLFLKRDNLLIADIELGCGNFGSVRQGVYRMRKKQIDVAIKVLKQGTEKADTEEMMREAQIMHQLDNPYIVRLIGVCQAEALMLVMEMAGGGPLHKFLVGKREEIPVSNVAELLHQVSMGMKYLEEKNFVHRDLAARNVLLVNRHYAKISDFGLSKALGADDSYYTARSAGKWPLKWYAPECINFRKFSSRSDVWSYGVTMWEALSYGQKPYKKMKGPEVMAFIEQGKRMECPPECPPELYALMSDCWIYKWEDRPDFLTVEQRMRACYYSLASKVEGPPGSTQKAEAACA
# UniProt P00772, sequence (whole entry, looked up): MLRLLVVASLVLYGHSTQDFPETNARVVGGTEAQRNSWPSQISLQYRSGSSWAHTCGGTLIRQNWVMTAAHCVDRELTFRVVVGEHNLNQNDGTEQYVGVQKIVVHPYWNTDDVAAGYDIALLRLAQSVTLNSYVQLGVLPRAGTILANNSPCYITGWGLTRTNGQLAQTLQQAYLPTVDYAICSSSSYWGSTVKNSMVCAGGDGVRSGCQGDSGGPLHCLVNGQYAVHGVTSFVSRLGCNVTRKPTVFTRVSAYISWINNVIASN
SMILES,target or system,assay,system,setting,how to read,measurement,value
Cc1ccc(OS(=O)(=O)F)c(C(=O)Nc2ccncc2)c1,Uncharacterized hydrolase SAUSA300_2518,"enzyme activity, inhibitor, fluorogenic substrate",,5 µM,,remaining activity,50.4% and 50.9% and 52.6%
N=C(N)NCCC[C@@H]1NC(=O)[C@H](CCCCNC(=O)CCC(NC(=S)Nc2ccc(CC3CN(CC(=O)O)CCN(CC(=O)O)CCN(CC(=O)O)CCN3CC(=O)O)cc2)C(=O)NCCCC[C@@H]2NC(=O)[C@@H](Cc3ccc(O)cc3)NC(=O)[C@H](CC(=O)O)NC(=O)CNC(=O)[C@H](CCCNC(=N)N)NC2=O)NC(=O)[C@@H](Cc2ccc(O)cc2)NC(=O)[C@H](CC(=O)O)NC(=O)CNC1=O (stereo partly shown) [scandium-44 labelled],,ex vivo γ-counting,"female athymic nude mice, U-87 MG xenograft, intestine","intravenous, 4 h",,tissue uptake,1.58 ± 1.02 %ID/g
O=C1NC(=O)c2c1c1cc(F)c[n+]3c1c1c2c2cc(O)ccc2[n]1[Ru-4]312([N]=C=S)[S+]3CC[S+]1CC[S+]2CC3 (stereo not shown),"NEK2 (Homo sapiens, UniProt P51955)",enzyme activity,,"100 nM, human enzyme, together with: 10 µM ATP",relative to: untreated,remaining activity,80%
O=C1NC2(CC2)COc2ncc(F)cc2[C@H]2COCCN2c2ccn3ncc1c3n2,,,"Sprague-Dawley rat, male, serum","oral, 5 mg/kg/day, end of treatment, 4-week subacute toxicity",,serum sodium,145 ± 1 mmol/L
CCCC(=O)CC(=O)N[C@H]1CCOC1=O,sdiA,,,,,Emax,114%
CC(C)C[C@@H]1NC(=O)[C@H](C(C)C)NC(=O)[C@H](CCC(=O)O)NC(=O)CNC(=O)[C@H]([C@@H](C)O)NC(=O)[C@H](CCC(=O)O)NC(=O)[C@H](CCC(=O)O)NC(=O)[C@H](CC(=O)O)NC(=O)[C@H](C(C)C)NC(=O)[C@H]([C@@H](C)O)NC(=O)CNC(=O)[C@H](CC(=O)O)NC(=O)[C@@H]2CCCN2C1=O,KEAP1,"Keap1-Nrf2 binding, inhibitor, competitive FP",,"100 µM, 30 min, together with: Nrf2 peptide probe",lower = stronger inhibition,fluorescence polarization,0.256 a.u. and 0.227 a.u.
CCCCCCC(=O)N[C@H]1CCOC1=O,lasR,"reporter gene, agonist",Pseudomonas aeruginosa PAO-JP2,"100 µM, plasI-LVAgfp reporter",relative to: OdDHL at same concentration,agonist activity,-2%
CC(C)[C@H]1NC(=O)C[C@H]2/C=C/CCSSC[C@@H](NC1=O)C(=O)N[C@H](Cc1cccc3ccccc13)C(=O)NCC(=O)O2,"PDGFRA (Homo sapiens, UniProt P16234, D842V)","enzyme activity, inhibitor",,10 µM,,inhibition,2.1%
CCCCC1CNCCN1CC1CCCN1CC(CC1CCCCC1)N1CCN(CCCC2CCCC2)C(Cc2ccc(O)cc2)C1 (stereo not shown),Oprm1,radioligand binding,rat brain membranes,"500 nM, pH 7.5, 25 °C, together with: 0.87 nM [3H]DAMGO",,remaining binding,95.2 ± 7.33%
Nc1ccc(/C=C/C(=O)N2CCc3c(oc4c(-c5ccc(F)cc5)cc(-c5ccc(C(=O)N6CCC(F)(F)CC6)cn5)cc34)C2)cn1,"ZAP70 (Homo sapiens, UniProt P43403)","binding, competition with immobilised ligand",,1 µM,,remaining binding,96%
Cc1cc(C(=O)Nc2nc3cccc(C)c3n2[C@H]2CCCCN(C(=O)/C=C/CN(C)C)C2)ccn1,Trypanosoma brucei,propidium iodide flow cytometry,bloodstream form,"concentration not given, 3 h",,cells in G1 phase,44.5%
O=C(O)c1cccc(CP(=O)(O)O)n1,"Metallo-beta-lactamase type 2 (Serratia marcescens, UniProt P52699)",inhibitor,,together with: nitrocefin,,dissociation half-life,22 ± 2.5 min
CC[C@@H](C)[C@@H]1CN([C@H](Cc2ccc3ccccc3c2)CN2CCC[C@H]2CN2CCNC[C@@H]2Cc2ccc3ccccc3c2)CCN1CCCC1CCCC1,Oprm1,radioligand binding,rat brain membranes,"500 nM, pH 7.5, 25 °C, together with: 0.87 nM [3H]DAMGO",,remaining binding,106 ± 8.95%
COc1ccccc1-c1n[nH]c2nc(NC3CCN(C(=O)Cc4ccc(F)cc4F)CC3)ncc12,Leishmania donovani NPK1-related kinase (LINJ.24.1500),bead binding competition,Leishmania donovani extract,10 µM,relative to: vehicle,relative abundance,0.72
[CH3][Ti+2][O]C(=O)c1ccc([S][Au][PH](c2ccccc2)(c2ccccc2)c2ccccc2)cc1.c1cc[cH-]c1.c1cc[cH-]c1,"MAPK3 (Homo sapiens, UniProt P27361)","kinase activity, HotSpot kinase",,"1 µM, together with: ATP 10 µM",,remaining activity,112% and 114%
C#CCCCCOc1ccc2c(c1)CCCN2C(=O)CCl,"CDK11B (Homo sapiens, UniProt P21127)",mass spectrometry profiling,H460 cell lysate,"100 µM over 10 µM, UniProt P21127",relative to: high over low concentration,reactivity ratio,1.17
C=CC(=O)NC[C@H](NC(=O)[C@H](CC1CCCCC1)NC(=O)[C@H](CCC(N)=O)NC(C)=O)C(=O)N[C@@H](CC(C)C)C(=O)N[C@@H](Cc1ccccc1)C(=O)O,"Beta sliding clamp (Escherichia coli, UniProt P0A988)","binding, isothermal titration calorimetry",,37 °C,,ΔH,-13.9 kcal/mol
COc1ccccc1-c1n[nH]c2nc(N[C@H]3CC[C@H](NS(=O)(=O)CC(C)C)CC3)ncc12,"cyclin 9 (Leishmania donovani, UniProt A0A2D1QVA3)","competitor, bead pull-down competition",Leishmania donovani extract,2 µM,relative to: vehicle,remaining binding,7%
CCCC[C@H]1CNCCN1C[C@@H]1CCCN1C[C@H](CC1CCCCC1)N1CCN(CCC23CC4CC(CC(C4)C2)C3)[C@H](Cc2ccc(O)cc2)C1,Oprm1,radioligand binding,rat brain membranes,"500 nM, pH 7.5, 25 °C, together with: 0.87 nM [3H]DAMGO",,remaining binding,101 ± 8.14%
CC(C)[C@H](NC(=S)Nc1ccc2c(c1)C(=O)OC21c2ccc(O)cc2Oc2cc(O)ccc21)C(=O)N[C@@H](CCCNC(=N)N)C(=O)N[C@@H](CCCNC(=N)N)C(=O)N[C@@H](C)C(=O)N[C@@H](CC(=O)O)C(=O)N[C@@H](CC(N)=O)C(=O)N[C@@H](CCCNC(=N)N)C(=O)N1CCC[C@H]1C(=O)NCC(=O)O,"Cyclic nucleotide-gated channel beta-3 (CNGB3, Homo sapiens, UniProt Q9NQW8, C234W)","binding, saturation binding",HEK293T expressing Myc-tagged CNGB3,"60 min, 37 °C",,Bmax,0.907 mol/mol receptor
CC(C)CC(O)(CC(C)C)c1cn(C(=O)N2CCCC2)nn1,"Alpha/beta hydrolase domain-containing protein 17A (Abhd17a, Mus musculus, UniProt Q99JW1)","probe labelling, inhibitor","mouse, brain","i.p., 0.8 mg/kg, 4 h, single peptide","relative to: treated over vehicle mice, lower = stronger inhibition",activity ratio-of-ratios,1.99 and 1.73 and 1.5 and 1.7
N[C@H](C(=O)N1CCCC1)C1CCN(c2nccc3c(-c4ncc(Cl)cc4Cl)cccc23)CC1,"PADI2 (Homo sapiens, UniProt Q9Y2J8)",enzyme activity,,"0.2458 µM, low-affinity site, together with: Ca2+ 0.25 mM",,kcat,0.241 s⁻¹ and 0.257 s⁻¹
CN(C)[C@H]1C[C@@]23CC[C@@]4(O2)C(=CC[C@]2(C)[C@@H](c5ccc6ccncc6c5)CC[C@H]24)C=C3[C@@H](O)[C@@H]1O,"MAPK7 (Homo sapiens, UniProt Q13164)","ATP probe labelling, inhibitor, KiNativ profiling",,0.1 µM,,inhibition,4.2%
COc1cc2c(cc1S(=O)(=O)F)C(=O)NCCC2,Uncharacterized hydrolase SAUSA300_2518,"enzyme activity, inhibitor, fluorogenic substrate",,0.5 µM,,remaining activity,91% and 94.4% and 92.9%
O=C(N1CCCCC1)n1ccnn1,"GPI inositol-deacylase (Pgap1, Mus musculus, UniProt Q3UUQ7)","probe labelling, inhibitor, competitive ABPP-SILAC, measured: Pgap1",mouse T cells,"concentration not given, 4 h, in situ, single peptide","relative to: treated over DMSO, lower = more inhibition",SILAC ratio,0.37 and 0.29
CCN(CC)CCO.O=C(O)C(Cl)Cl,Eleusine indica,,,"15 mg/mL, 21 days, post-emergence, greenhouse",,herbicidal inhibition,47%
CS(C)(=O)=Nc1ccc(-c2ccc(-c3nc4cc(O[C@@H]5CO[C@H]6[C@@H]5OC[C@H]6O)[nH]c4cc3F)cc2)cc1,"MAP4K2 (Homo sapiens, UniProt Q12851)","enzyme activity, inhibitor",,10 µM,,inhibition,-1%
O=C(CC(=O)N[C@H]1CCOC1=O)Cc1ccccc1,lasR,"reporter gene, agonist",Pseudomonas aeruginosa PAO-JP2,"100 µM, plasI-LVAgfp reporter",relative to: OdDHL at same concentration,agonist activity,0%
Cc1ccc(NC(=O)CCc2cccc(NC3=CC(=O)N(C4CCC(=O)NC4=O)C3=O)c2)cc1Cl (stereo not shown),"Cereblon/Ikaros (Homo sapiens, UniProt Q13422+Q96SW2)","degrader, quantitative proteomics, measured: protein abundance",Jurkat,"1 µM, 4 h",relative to: DMSO,log2 fold change,-2.4
CCCCCCCCCCCCn1nnc(CC(=O)O)n1,lasR,"reporter gene, antagonist","Escherichia coli, JLD271 with LasR plasmid","concentration not given, together with: OdDHL 2 nM",,antagonist activity,inactive
O=C(N[C@@H]1c2ccccc2C[C@H]1N1CCCC1)c1ccc(-c2ccnc3[nH]ccc23)nc1,"LATS2 (Homo sapiens, UniProt Q9NRM7)","binding, competition with immobilised ligand",,3 µM,,remaining binding,0%
C[C@H](NCc1ccc(-c2ccc(C(F)(F)F)cc2)cc1)C(N)=O,"FLT3 (Homo sapiens, UniProt P36888)","cell-free assay, competition with immobilised ligand",,1 µM,,inhibition,14%
COc1cccc(CC(=O)N[C@H]2CCOC2=O)c1,sdiA,,,,,Emax,112%
Cc1cc(-c2ccc3ccccc3c2)nnc1NCCN1CCN(C)CC1,"ABCB1 (Homo sapiens, UniProt P08183)","transport, inhibitor",,10000 nM,,inhibition,4%
O=C(CCCc1ccccc1)NC1CCOC1=O (stereo not shown),lasR,"reporter gene, agonist",Escherichia coli JLD271,"10 µM, pSC11 and pJN105L plasmids",relative to: OdDHL at same concentration,agonist activity,-1%
Cc1cc(O)cc(C)c1C[C@H](N)C(=O)N[C@H](CCCNC(=N)N)C(=O)N[C@@H](Cc1ccccc1)C(=O)N[C@@H](CCCCN)C(=O)NCCNC(=O)[C@@H]1Cc2ccccc2CN1C(=O)[C@@H](N)Cc1c(C)cc(O)cc1C,Oprm1,binding,rat brain membranes,together with: [3H]DAMGO,relative to: Ki mu over Ki delta,selectivity ratio,2.55
OB(O)c1cnn(-c2cccc(Cl)c2)c1,"CELA1 (Sus scrofa, UniProt P00772)",pNA substrate hydrolysis,,,relative to: Ki protease over Ki AmpC,selectivity ratio,83300
CC[C@H](C)[C@H](NC(=O)[C@H](CO)NC(=O)[C@H](Cc1ccc(O)cc1)NC(=O)[C@H](Cc1ccc(O)cc1)NC(=O)[C@H](CC(N)=O)NC(=O)CNC(=O)[C@H](CO)NC(=O)[C@H](Cc1ccc(O)cc1)NC(=O)[C@H](CO)NC(=O)[C@H](CO)NC(=O)[C@H](CC(N)=O)NC(=O)COCCOCCNC(=O)CN1CCN(CC(=O)O)CCN(CC(=O)O)CCN(CC(=O)O)CC1)C(=O)N[C@@H](CC(C)C)C(N)=O [copper-64 labelled],,dynamic PET,"mouse, tamoxifen-induced PDAC, tumor","intravenous, 0.1 µg/mouse, 1.4 min",,tumour uptake,15.7 %ID/mL
CC(C)(C)C(=O)OCOP(=O)(OCOC(=O)C(C)(C)C)C1CCCN(O)C1=O (stereo not shown),NCI-H322M,,,,,log LC50,> -4 log M
CC(C)[C@@H]1NC(=O)[C@H](CCC(=O)O)NC(=O)CNC(=O)[C@H]([C@@H](C)O)NC(=O)[C@H](CCC(=O)O)NC(=O)[C@H](CCC(=O)O)NC(=O)[C@H](CC(=O)O)NC(=O)[C@H](C(C)C)NC(=O)[C@H]([C@@H](C)O)NC(=O)CNC(=O)[C@H](CC(=O)O)NC(=O)[C@H](CC(N)=O)NC(=O)[C@H](Cc2ccc(O)cc2)NC1=O,KEAP1,"Keap1-Nrf2 binding, inhibitor, competitive FP",,"100 µM, 30 min, together with: Nrf2 peptide probe",lower = stronger inhibition,fluorescence polarization,0.234 a.u. and 0.16 a.u.

# Excerpt of the above:
SMILES,target or system,assay,system,setting,how to read,measurement,value
CS(C)(=O)=Nc1ccc(-c2ccc(-c3nc4cc(O[C@@H]5CO[C@H]6[C@@H]5OC[C@H]6O)[nH]c4cc3F)cc2)cc1,"MAP4K2 (Homo sapiens, UniProt Q12851)","enzyme activity, inhibitor",,10 µM,,inhibition,-1%
O=C(N1CCCCC1)n1ccnn1,"GPI inositol-deacylase (Pgap1, Mus musculus, UniProt Q3UUQ7)","probe labelling, inhibitor, competitive ABPP-SILAC, measured: Pgap1",mouse T cells,"concentration not given, 4 h, in situ, single peptide","relative to: treated over DMSO, lower = more inhibition",SILAC ratio,0.37 and 0.29
